# Experimental data of several laboratories.
# Protocols differ between the studies behind these lines. “And” joins repeats or separate records; there may be more than shown. ± gives the spread as reported.
SMILES,cell line,assay,system,setting,IC50
COC1=C[C@@H]2[C@@H]3Cc4ccc(OC)c(OC(=O)c5cnc(C)cn5)c4[C@]2(CCN3C)CC1=O,RAW264.7,"cytotoxicity, MTT",,24 h,> 100 µM
CCCCn1cc(C(=O)O)c(=O)c2cc(F)c(Nc3cccc(Cl)c3)c(N)c21,T47D,"cell growth or viability, SRB",,,14.9 µM and 15 µM
COC1=C[C@@H]2[C@@H]3Cc4ccc(OC)c(OC(=O)CN(C)C(=O)OC(C)(C)C)c4[C@]2(CCN3C)CC1=O,RAW264.7,"cytotoxicity, MTT",,24 h,> 100 µM
C/C(=N\OCCCN1CCCCC1)c1ccc(C(F)(F)F)cc1,HT-22,"cell growth or viability, MTT",,,95.4 µM
COC(=O)C1CN1S(=O)(=O)c1ccc(N)cc1 (stereo not shown),Balb/c 3T3 fibroblasts,"cytotoxicity, neutral red uptake",DMEM with 5% FBS,24 h,260 ± 10 µM
CC=C(C)C(=O)OC1C(O)C2OC(COC(=O)CCC(=O)CCCCCCC(CCCCC)OC3OC(C)C(O)C(O)C3O2)C1OC(=O)C=Cc1ccccc1 (stereo not shown),NIH/3T3,cytotoxicity,,,0.281 µM
COC(=O)C1CN1S(=O)(=O)c1ccc(C(F)(F)F)cc1 (stereo not shown),Balb/c 3T3 fibroblasts,"cytotoxicity, neutral red uptake",DMEM with 5% FBS,24 h,210 ± 30 µM
N=C(NCCCNCCCCCCCNCCCNC(=N)NC(=N)NCCC(c1ccccc1)c1ccccc1)NC(=N)NCCC(c1ccccc1)c1ccccc1,K562,"cell growth or viability, MTS",,72 h,~10 µM
CCCCn1cc(C(=O)O)c(=O)c2cc(F)c(Nc3ccccc3Cl)c(N)c21,PANC-1,"cell growth or viability, SRB",,,74 µM and 74.3 µM
COC1=C[C@@H]2[C@@H]3Cc4ccc(OC)c(OC(=O)[C@@H](N)CC(C)C)c4[C@]2(CCN3C)CC1=O,RAW264.7,"cytotoxicity, MTT",,24 h,> 100 µM
CCCCn1cc(C(=O)O)c(=O)c2cc(F)c(Nc3cccc(Cl)c3)c([N+](=O)[O-])c21,T47D,"cell growth or viability, SRB",,,40.6 µM and 41 µM
CN(C)C(=O)C1CN1S(=O)(=O)c1ccc(N(C)C)cc1 (stereo not shown),Balb/c 3T3 fibroblasts,"cytotoxicity, neutral red uptake",DMEM with 5% FBS,24 h,39 ± 3 µM
CO[C@H]1CC(O)=C2C(=O)c3c(cc(C)c(-c4c(C)cc5c(c4O)C(=O)C4=C(O)C[C@H](OC)[C@@H](O)[C@]4(C)O5)c3O)O[C@@]2(C)[C@@H]1O,NCI-H187,"cell growth or viability, resazurin",,5 days,0.9 µM
CC(C)[C@@H](NC(=O)[C@@H](C)c1cccc(C(=O)c2ccccc2)c1)C(=O)N[C@H](CCC(=O)O)C(=O)N[C@@H](C(=O)N[C@H](CCC(=O)O)C(=O)O)C(C)C,rat arthritic fibroblast-like synoviocytes,,,48 h,278 µg/mL
COC(=O)C1CN1S(=O)(=O)c1c(C)cc(C)cc1C (stereo not shown),Balb/c 3T3 fibroblasts,"cytotoxicity, neutral red uptake",DMEM with 5% FBS,24 h,200 ± 20 µM
CC[C@H](C)[C@H](NC(=O)OC(C)(C)C)C(=O)Oc1c(OC)ccc2c1[C@@]13CCN(C)[C@@H](C2)[C@H]1C=C(OC)C(=O)C3,RAW264.7,"cytotoxicity, MTT",,24 h,> 100 µM
COc1cccc2c1C(=O)c1c(O)c3c(c(O)c1C2=O)C[C@@](O)(C(CO)=NNC(=O)CCCCCCCCCCNC(=O)COCCOCCNC(=O)[C@@H](CC(=O)O)NC(=O)[C@@H](CC(=O)O)NC(=O)[C@@H](CC(=O)O)NC(=O)[C@@H](CC(=O)O)NC(=O)[C@@H](CC(=O)O)NC(=O)[C@@H](CC(=O)O)NC(=O)[C@@H](CC(=O)O)NC(=O)[C@H](N)CC(=O)O)C[C@@H]3O[C@H]1C[C@H](N)[C@H](O)[C@H](C)O1,SAOS-2,"cell growth or viability, CCK-8",,72 h,0.39 µM
CC(=O)O[C@H](CC(=O)O[C@@H]1COC(=O)c2csc(n2)[C@H](C(C)C)OC(=O)[C@@H](C)[C@H](CCCC(C)(Cl)Cl)OC(=O)c2csc1n2)[C@H](CC(C)C)NC(=O)[C@H](C(C)C)N(C)C,H-460,MTT,,"48 h, medium with 10% FBS",0.0048 to 1.8 µM
NC(=O)C1CN1S(=O)(=O)c1ccc([N+](=O)[O-])cc1 (stereo not shown),Balb/c 3T3 fibroblasts,"cytotoxicity, neutral red uptake",DMEM with 5% FBS,24 h,20 ± 2 µM
COC1=C[C@@H]2[C@@H]3Cc4ccc(OC)c(OC(=O)[C@H](C)NC(=O)OC(C)(C)C)c4[C@]2(CCN3C)CC1=O,RAW264.7,"cytotoxicity, MTT",,24 h,19.1 ± 2.43 µM
COc1cccc2c1C(=O)c1c(O)c3c(c(O)c1C2=O)C[C@@](O)(C(CO)=NNC(=O)CCCCCCCCCCNC(=O)CCCCCCCCCCNC(=O)[C@H](CCCCNC(=O)COCCOCCNC(=O)[C@@H](CC(=O)O)NC(=O)[C@@H](CC(=O)O)NC(=O)[C@@H](CC(=O)O)NC(=O)[C@H](N)CC(=O)O)NC(=O)COCCOCCNC(=O)[C@@H](CC(=O)O)NC(=O)[C@@H](CC(=O)O)NC(=O)[C@@H](CC(=O)O)NC(=O)[C@H](N)CC(=O)O)C[C@@H]3O[C@H]1C[C@H](N)[C@H](O)[C@H](C)O1,SAOS-2,"cell growth or viability, CCK-8",,72 h,0.61 µM
CCCc1ccc(S(=O)(=O)N2CC2C(=O)OC)cc1 (stereo not shown),Balb/c 3T3 fibroblasts,"cytotoxicity, neutral red uptake",DMEM with 5% FBS,24 h,180 ± 6 µM
CCCCn1cc(C(=O)O)c(=O)c2cc(F)c3c(nnn3-c3ccccc3Cl)c21,T47D,"cell growth, SRB",,72 h,71.6 ± 6.6 µg/mL
Fc1ccc(Nc2nc(SCc3ccccc3Cl)nc3ccccc23)cc1,A549-ACE2,cytotoxicity,,48 h,24.8 µM
NC(=O)C1CN1S(=O)(=O)c1ccc(F)cc1F (stereo not shown),Balb/c 3T3 fibroblasts,"cytotoxicity, neutral red uptake",DMEM with 5% FBS,24 h,13 ± 1 µM
CCCCn1cc(C(=O)O)c(=O)c2cc(F)c(Nc3ccccc3Cl)c([N+](=O)[O-])c21,T47D,"cell growth or viability, SRB",,,45.8 µM
Cc1ccc(S(=O)(=O)N2CC2C(N)=O)cc1 (stereo not shown),Balb/c 3T3 fibroblasts,"cytotoxicity, neutral red uptake",DMEM with 5% FBS,24 h,70 ± 7 µM
CCCCn1cc(C(=O)O)c(=O)c2cc(F)c3c(nnn3-c3cccc(Cl)c3)c21,T47D,"cell growth or viability, SRB",,,70.9 µM
